Literature values as cited in several papers.
Each line is one published result; not all experiments were run side by side. ± gives the spread as reported. In brackets after ≈: the same amount, converted by molar mass.
UniProt Q99640, sequence (whole entry, looked up): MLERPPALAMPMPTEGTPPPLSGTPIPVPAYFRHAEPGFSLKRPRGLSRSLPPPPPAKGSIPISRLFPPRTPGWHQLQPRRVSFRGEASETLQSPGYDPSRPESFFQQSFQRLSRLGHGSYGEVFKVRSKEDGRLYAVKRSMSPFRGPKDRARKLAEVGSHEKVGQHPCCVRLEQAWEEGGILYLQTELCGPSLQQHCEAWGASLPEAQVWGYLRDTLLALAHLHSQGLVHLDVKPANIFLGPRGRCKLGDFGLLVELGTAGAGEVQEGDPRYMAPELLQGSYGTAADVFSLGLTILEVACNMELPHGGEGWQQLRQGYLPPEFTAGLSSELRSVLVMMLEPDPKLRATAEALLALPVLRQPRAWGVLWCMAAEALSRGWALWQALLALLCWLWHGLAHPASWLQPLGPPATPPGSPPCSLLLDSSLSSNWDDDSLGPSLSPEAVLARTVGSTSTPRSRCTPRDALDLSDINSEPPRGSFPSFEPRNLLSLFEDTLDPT

Compound	tested on	test	system	setting	how to read	quantity	result
CO[C@@H](C)Cn1c(=O)n(C)c2cnc3ccc(-c4cncc(C(C)(C)O)c4)cc3c21		measured: grade ≥3 asthenia	cancer patients	dose not given, monotherapy		patients with related adverse event	2.1%
Cc1cc(-c2nccc3c2ccn3CC(=O)Nc2ccc(-c3cnccn3)cn2)ccn1			rat	oral, up to 200 mg/kg		nervous function, body weight, body temperature	no effect
C=CC(=O)Nc1cc(Nc2ncc(C(=O)OC(C)C)c(-c3cn(C)c4ccccc34)n2)c(OC)cc1N(C)CCN(C)C			human, NSCLC patients	dose not given, all doses		grade 3 adverse events	42%
CCOc1c([C@H](C)n2nc(C)c3c(N)ncnc32)cc(Cl)c(F)c1[C@@H]1CNC(=O)C1			human	oral, 20 mg once daily, together with: rifampin	reference: compound alone	Cmax decrease	43%
CC(C)[C@H](N)C(=O)OCC(CO)OCn1cnc2c(=O)[nH]c(N)nc21 (stereo partly shown)			rat			oral bioavailability	92%
CC(O)(P(=O)(O)O)P(=O)(O)OP(=O)(O)OC[C@H]1O[C@@H](n2ccc(N)nc2=O)[C@@H](O)[C@@H]1O (stereo partly shown)			human serum	concentration not given, 37 °C		hydrolysis half-life	5.7 h
CC(C)(c1ccc(O)cc1)c1ccc(O)cc1		HPLC	zebrafish embryos	waterborne, 4.38 nM, from 4 to 72 hpf		uptake	0.196 pmol/embryo
CN[C@@H](C)C(=O)N[C@H]1CN(S(=O)(=O)c2cccc(S(=O)(=O)N3CC[C@H]4CC[C@@H](C(=O)NC(c5ccccc5)c5ccccc5)N4C(=O)[C@@H](NC(=O)[C@H](C)NC)C3)c2)CC[C@H]2CC[C@@H](C(=O)NC(c3ccccc3)c3ccccc3)N2C1=O			advanced solid tumour patients	dose not given, monotherapy		TEAE nausea incidence	21.7%
C=C[C@@H]1C[C@]1(NC(=O)[C@@H]1C[C@@H]2CN1C(=O)[C@H](C(C)(C)C)NC(=O)O[C@@H]1C[C@H]1CCCCCc1nc3ccc(OC)cc3nc1O2)C(=O)NS(=O)(=O)C1CC1			bile duct-cannulated rats	oral, time not given		fraction of dose recovered in bile	28%
NC(=O)N1c2ccccc2CC(O)c2ccccc21 (stereo not shown)		non-compartmental analysis	healthy adults			clearance	~3 L/h
Nc1cccc2c1C(=O)N(C1CCC(=O)NC1=O)C2=O (stereo not shown)			relapsed refractory multiple myeloma patients	all grades		peripheral neuropathy incidence	10%
C[Si]1(C)O[Si](C)(C)O[Si](C)(C)O[Si](C)(C)O[Si](C)(C)O1				25 °C		log KOA	4.94
CNC(=C[N+](=O)[O-])NCCSCc1ccc(CN(C)C)o1						kinetic solubility	79.5 µg/mL (≈ 253 µM)
C#C[C@]1(O)CC[C@H]2[C@@H]3CCc4cc(O)ccc4[C@H]3CC[C@@]21C			HCl fasted stomach medium	1.0 h		cumulative release	82%
C[C@@H](Oc1ccc(S(C)(=O)=O)cc1C(=O)N1C[C@@H]2C[C@]2(c2cc(C(F)(F)F)on2)C1)C(F)(F)F			human	once daily dosing		time to steady state	6 days
CCCC(CCC)C(=O)O			mouse	i.p., corneal kindling model		protective index	4.2
NC1(C(=O)N[C@@H](CCO)c2ccc(Cl)cc2)CCN(c2nc[nH]c3nccc2-3)CC1			human			renal clearance fraction of total	21%
C=CC(=O)NC1CCN(c2ncc3ncnc(Nc4ccc(Oc5ccc6c(c5)ncn6C)c(C)c4)c3n2)CC1			patients, NSCLC, HER2-mutant, previously treated	120 mg once daily, treatment-related any grade		rash incidence	33%
CC(C)Cc1ccc(C(C)C(=O)O)cc1 (stereo not shown)			rat, brain			steady-state concentration	~3.5 µM
CCCC(C)C(=O)O (stereo not shown)		pericardial and yolk oedema	zebrafish embryo	nominal concentration		EC10	373 µM
Oc1c(Cl)cc(Cl)cc1Sc1cc(Cl)cc(Cl)c1O			human	oral		maximum safe dose	25 mg/kg/day
CC1(C)S[C@@H]2[C@H](NC(=O)[C@H](N)c3ccccc3)C(=O)N2[C@H]1C(=O)O	Enterobacter cloacae		clinical isolate RKI-No_76/15			MIC	> 16 µg/mL
CN(C)C(=O)c1cc2cnc(Nc3ccc(N4CCNCC4)cn3)nc2n1C1CCCC1			human	geometric mean all doses		effective half-life	12 to 33.1 h

Compound	tested on	test	system	setting	how to read	quantity	result
Cc1cc(=O)n(-c2ccccc2)n1C			rat, plasma			fraction unbound	0.69
Nc1cc(C(F)(F)F)c(-c2nc(N3CCOCC3)nc(N3CCOCC3)n2)cn1	Membrane-associated tyrosine- and threonine-specific cdc2-inhibitory kinase (PKMYT1, Homo sapiens, UniProt Q99640)	enzyme activity		10 µM	reference: untreated	remaining activity	66%
CCCCc1oc2ccc(NS(C)(=O)=O)cc2c1C(=O)c1ccc(OCCCN(CCCC)CCCC)cc1			human, plasma	typical therapeutic dosing		steady-state plasma concentration	0.15 to 0.3 µM
CC(C)c1ncc(C(=O)N2CCOC3(CCN(Cc4ccc(F)c(CCNC[C@H](O)c5ccc(O)c6[nH]c(=O)sc56)c4)CC3)C2)s1			human, plasma	inhaled		Tlast	48 h
N#C[C@@]1(c2ccc3c(N)ncnn23)O[C@H](CO)[C@@H](O)[C@H]1O			dog	oral, 5 mg/kg, solution, unadjusted NCATS data		Cmax	17.2 µM
CNC(=O)c1c(C)oc2cc(Oc3ncnc4cc(OC)c(OC)cc34)ccc12			urine	5 mg radiolabelled, time not given		dose recovered	~60%
O=C(O)CN(CC(=O)O)CC(=O)O		pH-potentiometry, measured: logK1H	0.15 M NaClO4	25 °C		protonation constant (log)	9.22
COc1cnc(-n2cnc(C)n2)c2[nH]cc(C(=O)C(=O)N3CCN(C(=O)c4ccccc4)CC3)c12			healthy subjects	dose not given, drug interaction study, together with: rifampin		AUC decrease	82%
COc1cc2ncnc(Nc3ccc(F)c(Cl)c3)c2cc1OCCCN1CCOCC1			human	dose not given, empty stomach		reduction in drug exposure	34%
N#CCNC(=O)c1ccc(-c2ccnc(Nc3ccc(N4CCOCC4)cc3)n2)cc1			human, urine	oral, time not given, single dose 14C-labelled	reference: dose	recovered drug-related material	27.5%
COc1cc(C(=O)O)ccc1NC(=O)[C@@H]1N[C@@H](CC(C)(C)C)[C@](C#N)(c2ccc(Cl)cc2F)[C@H]1c1cccc(Cl)c1F			patients with solid tumours or lymphomas	dose not given, grade ≥3, first-in-human trials		patients with related neutropenia	21%
CC(=O)OCC(CCn1cnc2cnc(N)nc21)COC(C)=O			rat			oral bioavailability	41%
COc1cc2c(Oc3ccc4[nH]c(C)cc4c3F)ccnc2cc1OCC1(N)CC1			Beagle dog	0.12 mg/kg, 8 h, NOAEL dose		AUC(0-t)	51.7 ng·h/mL
CNC(C)C1CCC(N)C(OC2C(N)CC(N)C(OC3OCC(C)(O)C(NC)C3O)C2O)O1 (stereo not shown)	Enterobacter cloacae		clinical isolate RKI-No_141/15			MIC	≤ 0.5 µg/mL
CCC(C)n1ncn(-c2ccc(N3CCN(c4ccc(OCC5COC(Cn6cncn6)(c6ccc(Cl)cc6Cl)O5)cc4)CC3)cc2)c1=O (stereo not shown)			plasma			fraction unbound in plasma	0.016
C=CCC(CCC)C(=O)O (stereo not shown)		craniofacial deformation	zebrafish embryo	nominal concentration		EC10	7 µM
O=C(c1cc(Cc2n[nH]c(=O)c3ccccc23)ccc1F)N1CCN(C(=O)C2CC2)CC1			human	oral tablet, 100 mg twice daily, multiple dose		AUC(last)	16700 ng·h/mL
C=CC(=O)N1CCC([C@@H]2CCNc3c(C(N)=O)c(-c4ccc(Oc5ccccc5)cc4)nn32)CC1			human patients	oral, 40 mg once daily, day 8		AUC(0-8h)	339 ± 125 ng·h/mL
C=C1[C@H](CO)[C@@H](O)C[C@@H]1n1cnc2c(=O)[nH]c(N)nc21			dog			oral bioavailability	91%
Cc1c(C(=O)O)ccc2c3n(nc12)[C@@H]1[C@H](C3)N(CC2CC2)[C@@]2(C(=O)Nc3cc(Cl)ccc32)[C@H]1c1cccc(Cl)c1F			human patients	dose not given, phase I trial	reference: patients	thrombocytopenia, grade ≥3, treatment-related	25.9%
CCc1nc(N)nc(N)c1-c1ccc(Cl)cc1						pKa1	7.34
c1ccc2c(c1)ccc1ccccc12		metabolism, substrate	human liver microsomes			Vmax	304 pmol/min/mg
C[C@@H]1CCO[C@H]2Cn3cc(C(=O)NCc4ccc(F)cc4F)c(=O)c(O)c3C(=O)N12		population PK	treatment-naive adult patients	dose not given		apparent volume of distribution	17.4 L

A few entries again:
Compound	tested on	test	system	setting	how to read	quantity	result
O=C(O)CN(CC(=O)O)CC(=O)O		pH-potentiometry, measured: logK1H	0.15 M NaClO4	25 °C		protonation constant (log)	9.22
CO[C@@H](C)Cn1c(=O)n(C)c2cnc3ccc(-c4cncc(C(C)(C)O)c4)cc3c21		measured: grade ≥3 asthenia	cancer patients	dose not given, monotherapy		patients with related adverse event	2.1%
C=CC(=O)Nc1cc(Nc2ncc(C(=O)OC(C)C)c(-c3cn(C)c4ccccc34)n2)c(OC)cc1N(C)CCN(C)C			human, NSCLC patients	dose not given, all doses		grade 3 adverse events	42%
CC1(C)S[C@@H]2[C@H](NC(=O)[C@H](N)c3ccccc3)C(=O)N2[C@H]1C(=O)O	Enterobacter cloacae		clinical isolate RKI-No_76/15			MIC	> 16 µg/mL
NC1(C(=O)N[C@@H](CCO)c2ccc(Cl)cc2)CCN(c2nc[nH]c3nccc2-3)CC1			human			renal clearance fraction of total	21%
C=CC(=O)N1CCC([C@@H]2CCNc3c(C(N)=O)c(-c4ccc(Oc5ccccc5)cc4)nn32)CC1			human patients	oral, 40 mg once daily, day 8		AUC(0-8h)	339 ± 125 ng·h/mL
C[C@@H]1CCO[C@H]2Cn3cc(C(=O)NCc4ccc(F)cc4F)c(=O)c(O)c3C(=O)N12		population PK	treatment-naive adult patients	dose not given		apparent volume of distribution	17.4 L
COc1cnc(-n2cnc(C)n2)c2[nH]cc(C(=O)C(=O)N3CCN(C(=O)c4ccccc4)CC3)c12			healthy subjects	dose not given, drug interaction study, together with: rifampin		AUC decrease	82%
